Published values from different studies.
Each numbered part is a random draw from the data of one study; scales do not carry over between parts. Changes are numbered by the printed parent chain.
Chain of UniProt P61075 (whole entry, looked up): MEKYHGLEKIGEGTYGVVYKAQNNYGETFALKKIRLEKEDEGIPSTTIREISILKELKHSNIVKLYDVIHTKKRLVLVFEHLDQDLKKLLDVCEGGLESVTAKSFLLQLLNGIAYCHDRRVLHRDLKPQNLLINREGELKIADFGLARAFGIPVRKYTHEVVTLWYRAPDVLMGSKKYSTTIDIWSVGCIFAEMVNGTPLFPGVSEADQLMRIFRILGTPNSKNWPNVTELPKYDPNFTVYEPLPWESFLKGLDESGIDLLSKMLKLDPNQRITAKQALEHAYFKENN

Study 1
Target: HLA class I histocompatibility antigen, C alpha chain, allele C*04:01 (Homo sapiens, UniProt P10321)
Effect on: peptide-MHC binding
Form: peptide
Concentration: concentration not given
| Molecule | binding |
| --- | --- |
| CTSSIQYHR | inactive |
| RYRTAVCGL | inactive |
| YSLMSRYQF | inactive |
| AQIGIFAPV | inactive |
| WMYYPRSPV | inactive |

Study 2
Target: RING finger protein unkempt homolog, zinc fingers 1-6, GST-SBP tag (UNK, Homo sapiens, UniProt Q9C0B0, residues 30-357)
Chain of UniProt Q9C0B0 (30-357, looked up): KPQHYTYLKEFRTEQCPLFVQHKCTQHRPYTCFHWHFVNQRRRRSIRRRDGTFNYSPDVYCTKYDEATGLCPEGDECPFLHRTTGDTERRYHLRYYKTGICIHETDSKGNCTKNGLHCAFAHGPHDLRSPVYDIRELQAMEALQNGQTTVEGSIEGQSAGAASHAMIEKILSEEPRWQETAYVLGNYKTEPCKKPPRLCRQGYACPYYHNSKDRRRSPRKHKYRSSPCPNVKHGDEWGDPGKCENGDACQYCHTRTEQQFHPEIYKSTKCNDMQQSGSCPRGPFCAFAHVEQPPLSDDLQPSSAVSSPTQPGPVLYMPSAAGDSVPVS
Technique: RNA Bind-n-Seq
Form: RNA
Matrix: in vitro
Concentration: not given
Notes: RNA with constant flanks, human and mouse sites, ends assumed
Relative to: input RNA pool
Direction: higher = stronger binding
Constant ends, left off below: GGGAGUUCUACAGUCCGACGAUC … CAACAGAGGAUUGAGCAUCA
| Sequence | bound/input enrichment [ratio] |
| --- | --- |
| UCUUGUGGACAUGCCUGCACACACACUGAGCACAUGGCAGCUCUCUCCCCUGAAAAGGAUCCAUGUUCAUACAGAACGGAAAUGUGUUGCCUUCAUUGUCCCUAUCCCCAUCUUCUGUUC | 0.159 |
| GAAGACACAGAGGCAAAGAAUCCAUUUUCAACUCAGGACACUGAUUUAGAUUUGGAGAUGCUGGCUCCCUAUAUCCCAAUGGAUGAUGAUUUCCAGUUACGUUCCUUUGAUCAGUUGUCA | 0.169 |
| AUUAUUCCAUCAUUUGUGUUGAUGGAUAUCCAGGCUUCUACAGUGGUCACCUAUGUGUAUCAGCUAAUUGGAGAUGAUGUGAAAGUAGAACGAAUCGAAUACAAAAAACCUUAAAGCCAG | 0.248 |
| GCAAUCAGCAGAGACAUUGAUACUGCUGCCAAAUUUAUUGGUGCAGGUGCUGCAACAGUAGGAGUGGCUGGUUCUGGUGCUGGUAUUGGAACAGUCUUUGGCAGCCUUAUCAUUGGUUAU | 0.125 |
| AGAGAAAUGAGAAAGAAUCUCACACAAGAUGAGAUGCAAAGAAUGUCUACUAGAGUCCUUUUAGCCACUCUUUCCAUCCCUAUUACUCCUGAGCGUACGGAUAUUGCUCGACUUCUGGAU | 0.189 |
| AAAAUAAAUAAUCUCAUCCCCAAACUGUAGUAAUUGUUACAAUUUUCUAUUUAAAAAAUGAAUAGUACAUGCAGAAAUUGACCUGAUUUCCAUUUGCAACAGGAAGACACUGGCUUUACA | 0.875 |
| GUUGAAGUUGUUGCUGUUUCGUCUAUCCAUACACAAGAUCCUUAUCUUGACAAAUUUUUUGCUCUGGUCAAUGCUCUGGAUGAACACCUGUUCCCAGUCCGAAUUGGGGACAUGCGAAUC | 0.203 |
| GGAAGUACAAUGAUGGAGAUUGAUGGUGACAAAGGCAAGCAGGGCGGGCCCACCUACUACAUAGACACCAAUGCCCUCCGCGUGCCCAGGGAGAACAUGGAGGCCAUCUCACCACUCAAG | 0.218 |

Study 3
Target: CCNA1, cyclin fold, Cln2 fusion (human)
Technique: yeast growth competition, sequencing
Matrix: yeast
Notes: strong parent motif
Relative to: not given
Direction: higher = stronger binding
Starting sequence: viral docking peptide; TSVRRALFTGGSD
| Change | normalised enrichment score |
| --- | --- |
| TSVRRFLFTGGSD [A6F] | 0.183 |
| TWVRRALFTGGSD [S2W] | -0.197 |
| TSVRRALFTGGLD [S12L] | 0.675 |
| TSVSRALFTGGSD [R4S] | 0.579 |
| TSVRRALFTGGVD [S12V] | 1.09 |
| TSVRRALFTGYSD [G11Y] | 0.919 |
| TSVRRASFTGGSD [L7S] | -0.172 |
| TYVRRALFTGGSD [S2Y] | 0.718 |
| TSVRRALFCGGSD [T9C] | 0.944 |
| TSVRYALFTGGSD [R5Y] | 0.165 |
| TSVRRALFHGGSD [T9H] | 0.74 |
| TSVRRALFTGISD [G11I] | 0.753 |
| TSVRRKLFTGGSD [A6K] | 0.747 |
| TSVRNALFTGGSD [R5N] | 0.274 |
| TSVRRALFTRGSD [G10R] | 0.314 |
| TSVRRALFTLGSD [G10L] | 0.833 |
| TSVRRARFTGGSD [L7R] | 0.0497 |
| TSVKRALFTGGSD [R4K] | 0.828 |
| TSVRRAMFTGGSD [L7M] | 0.355 |
| TAVRRALFTGGSD [S2A] | 0.712 |
| TSVRRYLFTGGSD [A6Y] | -0.421 |
| TSWRRALFTGGSD [V3W] | 0.291 |
| TSVRIALFTGGSD [R5I] | 0.23 |
| TSVRRALFTGCSD [G11C] | 1.43 |
| TSVRLALFTGGSD [R5L] | -0.222 |

Study 4
Target: Centromere-binding protein 1, full length, N-terminal tag (CBF1, Saccharomyces cerevisiae, UniProt P17106, residues 1-351)
Chain of UniProt P17106 (whole entry, looked up): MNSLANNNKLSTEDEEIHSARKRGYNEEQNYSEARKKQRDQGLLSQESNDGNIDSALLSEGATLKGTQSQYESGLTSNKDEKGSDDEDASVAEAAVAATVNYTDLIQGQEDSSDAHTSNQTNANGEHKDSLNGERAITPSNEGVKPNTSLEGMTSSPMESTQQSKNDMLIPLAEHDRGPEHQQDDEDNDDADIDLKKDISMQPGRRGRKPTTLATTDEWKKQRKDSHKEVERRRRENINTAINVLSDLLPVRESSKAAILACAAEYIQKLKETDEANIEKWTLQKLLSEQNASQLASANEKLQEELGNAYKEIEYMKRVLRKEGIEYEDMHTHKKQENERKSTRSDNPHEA
Technique: protein-binding microarray
Form: double-stranded DNA, one strand shown
Matrix: in vitro
Concentration: 0.8 µM
Notes: whole 60-bp probe, no competitor
Direction: higher = stronger binding
Constant ends, left off below: … GTCTTGATTCGCTTGACGCTGCTG
| Sequence | fluorescence intensity [a.u.] |
| --- | --- |
| GAACCAATTTTTTGTCACGCTTATTAGAATATTTAG | 1590 |
| CTAAAAAAAAAAAGTCATGTGACTTGAATATTATTC | 15200 |
| CTACATTCAATTCCTCACCTGGTGCGCACTTCCTTC | 558 |
| CTAACAATTCCATTTGATGTCACCGTGGTAATATTC | 569 |
| CTATTGAAATGATATGATCAGTTGAGAAAAAGCTTC | 536 |
| GAATGACCATGACTTCTCGTGCACCTTACAGGATAG | 603 |
| GAACCCACTAGTAATCACCTGCATCTATATAAGTAG | 937 |
| CTAACTTATTTTCATCACGAATACGAGAAGGGCTTC | 568 |

Study 5
Target: Transcription factor SOX-2, HMG box (Sox2, Mus musculus, UniProt P48432, residues 41-119)
Chain of UniProt P48432 (41-119, looked up): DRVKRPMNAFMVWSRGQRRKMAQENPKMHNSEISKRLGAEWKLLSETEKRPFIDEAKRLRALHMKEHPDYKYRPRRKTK
Technique: Spec-seq
Form: double-stranded DNA, one strand shown
Matrix: in vitro
Concentration: not given
Notes: whole probe, mean of replicates
Relative to: not given
Direction: lower = stronger binding
Constant ends, left off below: GAGTCGTCTCGTCAGCAC … CCGTAGAGCACTCAGGTC
| Sequence | relative binding energy [ln ratio] |
| --- | --- |
| CATGACG | 0.127 |
| TATTGTT | -2.68 |
| TTTTGTT | -2.58 |
| CATGCCG | 0.626 |
| AGTTGTT | -0.94 |
| GTGCGTT | 1.45 |
| GCTGGTT | 0.915 |
| CATGGTG | 0.164 |

Further values, each from its own experiment
| Compound | target | assay | setting | quantity | result |
| --- | --- | --- | --- | --- | --- |
| O=C(O)[C@H]1[C@H](Cn2nnc3ccccc3c2=O)CC[C@@H]1C(=O)c1ccc(OCCC2CCOCC2)cc1 | Cyclin-dependent kinase 2 homolog (CRK2, Plasmodium falciparum, UniProt P61075) | cell-free assay, competition with immobilised ligand | 1 µM | remaining binding | 91% |
